Assay results of several laboratories.
Parts stem from different laboratories: compare values within a part only.
UniProt P08922, sequence (whole entry, looked up): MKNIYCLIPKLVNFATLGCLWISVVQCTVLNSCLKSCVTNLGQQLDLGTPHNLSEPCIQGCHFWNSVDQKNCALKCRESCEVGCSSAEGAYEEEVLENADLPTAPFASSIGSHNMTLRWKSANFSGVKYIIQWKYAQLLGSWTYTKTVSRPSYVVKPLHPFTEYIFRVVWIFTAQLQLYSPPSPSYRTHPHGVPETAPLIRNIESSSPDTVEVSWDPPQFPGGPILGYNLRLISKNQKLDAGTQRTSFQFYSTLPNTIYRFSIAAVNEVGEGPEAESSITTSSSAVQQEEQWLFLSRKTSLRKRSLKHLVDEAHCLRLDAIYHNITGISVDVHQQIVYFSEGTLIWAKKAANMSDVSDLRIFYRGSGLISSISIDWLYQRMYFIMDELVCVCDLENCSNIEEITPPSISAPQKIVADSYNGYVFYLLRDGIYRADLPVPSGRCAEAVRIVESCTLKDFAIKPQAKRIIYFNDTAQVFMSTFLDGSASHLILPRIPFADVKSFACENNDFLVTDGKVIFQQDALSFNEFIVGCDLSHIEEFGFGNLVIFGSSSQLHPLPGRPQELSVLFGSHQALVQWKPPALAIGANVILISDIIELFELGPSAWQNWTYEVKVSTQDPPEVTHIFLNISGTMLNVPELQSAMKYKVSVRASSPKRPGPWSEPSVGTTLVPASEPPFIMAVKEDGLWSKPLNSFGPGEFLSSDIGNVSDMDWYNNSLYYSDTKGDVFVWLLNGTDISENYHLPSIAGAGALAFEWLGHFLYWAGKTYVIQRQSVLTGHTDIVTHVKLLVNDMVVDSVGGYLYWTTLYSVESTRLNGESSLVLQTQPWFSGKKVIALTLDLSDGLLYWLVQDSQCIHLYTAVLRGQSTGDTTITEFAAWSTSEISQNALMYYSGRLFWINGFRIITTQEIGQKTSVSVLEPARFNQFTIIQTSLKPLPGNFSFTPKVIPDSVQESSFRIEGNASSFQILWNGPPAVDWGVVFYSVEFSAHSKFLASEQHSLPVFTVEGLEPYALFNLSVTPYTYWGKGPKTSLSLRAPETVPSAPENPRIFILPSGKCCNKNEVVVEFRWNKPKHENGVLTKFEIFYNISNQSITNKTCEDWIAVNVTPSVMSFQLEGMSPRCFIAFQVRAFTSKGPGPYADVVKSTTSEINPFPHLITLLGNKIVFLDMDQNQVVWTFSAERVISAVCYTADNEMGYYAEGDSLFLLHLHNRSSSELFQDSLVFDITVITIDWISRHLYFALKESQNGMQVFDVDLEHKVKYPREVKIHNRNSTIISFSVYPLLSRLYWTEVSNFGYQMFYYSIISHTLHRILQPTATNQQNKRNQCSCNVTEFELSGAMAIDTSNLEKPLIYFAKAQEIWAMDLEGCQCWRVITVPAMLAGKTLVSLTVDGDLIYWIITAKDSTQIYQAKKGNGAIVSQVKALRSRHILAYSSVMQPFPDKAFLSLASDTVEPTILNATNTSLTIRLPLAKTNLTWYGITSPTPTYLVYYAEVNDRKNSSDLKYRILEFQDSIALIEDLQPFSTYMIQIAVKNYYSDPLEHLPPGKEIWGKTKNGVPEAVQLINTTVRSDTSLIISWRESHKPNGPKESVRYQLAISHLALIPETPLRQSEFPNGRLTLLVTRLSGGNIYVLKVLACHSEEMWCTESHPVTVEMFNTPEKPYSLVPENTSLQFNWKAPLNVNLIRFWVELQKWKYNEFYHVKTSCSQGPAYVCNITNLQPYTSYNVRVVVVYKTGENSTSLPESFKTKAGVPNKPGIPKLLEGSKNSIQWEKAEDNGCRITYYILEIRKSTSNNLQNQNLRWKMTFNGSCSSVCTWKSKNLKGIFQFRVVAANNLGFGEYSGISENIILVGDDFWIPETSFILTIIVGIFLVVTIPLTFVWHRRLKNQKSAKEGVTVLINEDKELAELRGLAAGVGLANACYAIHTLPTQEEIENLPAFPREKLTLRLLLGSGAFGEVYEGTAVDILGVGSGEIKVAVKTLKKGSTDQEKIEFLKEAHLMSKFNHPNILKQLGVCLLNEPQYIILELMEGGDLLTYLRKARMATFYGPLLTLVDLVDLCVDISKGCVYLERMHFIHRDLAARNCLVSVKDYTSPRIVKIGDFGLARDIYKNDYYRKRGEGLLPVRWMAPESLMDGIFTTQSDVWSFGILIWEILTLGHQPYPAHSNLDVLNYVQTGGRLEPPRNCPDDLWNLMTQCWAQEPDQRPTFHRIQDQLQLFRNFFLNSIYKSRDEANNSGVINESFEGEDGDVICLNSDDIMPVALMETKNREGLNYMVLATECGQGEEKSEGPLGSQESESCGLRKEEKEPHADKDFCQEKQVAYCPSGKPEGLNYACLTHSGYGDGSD
UniProt O94804, sequence (whole entry, looked up): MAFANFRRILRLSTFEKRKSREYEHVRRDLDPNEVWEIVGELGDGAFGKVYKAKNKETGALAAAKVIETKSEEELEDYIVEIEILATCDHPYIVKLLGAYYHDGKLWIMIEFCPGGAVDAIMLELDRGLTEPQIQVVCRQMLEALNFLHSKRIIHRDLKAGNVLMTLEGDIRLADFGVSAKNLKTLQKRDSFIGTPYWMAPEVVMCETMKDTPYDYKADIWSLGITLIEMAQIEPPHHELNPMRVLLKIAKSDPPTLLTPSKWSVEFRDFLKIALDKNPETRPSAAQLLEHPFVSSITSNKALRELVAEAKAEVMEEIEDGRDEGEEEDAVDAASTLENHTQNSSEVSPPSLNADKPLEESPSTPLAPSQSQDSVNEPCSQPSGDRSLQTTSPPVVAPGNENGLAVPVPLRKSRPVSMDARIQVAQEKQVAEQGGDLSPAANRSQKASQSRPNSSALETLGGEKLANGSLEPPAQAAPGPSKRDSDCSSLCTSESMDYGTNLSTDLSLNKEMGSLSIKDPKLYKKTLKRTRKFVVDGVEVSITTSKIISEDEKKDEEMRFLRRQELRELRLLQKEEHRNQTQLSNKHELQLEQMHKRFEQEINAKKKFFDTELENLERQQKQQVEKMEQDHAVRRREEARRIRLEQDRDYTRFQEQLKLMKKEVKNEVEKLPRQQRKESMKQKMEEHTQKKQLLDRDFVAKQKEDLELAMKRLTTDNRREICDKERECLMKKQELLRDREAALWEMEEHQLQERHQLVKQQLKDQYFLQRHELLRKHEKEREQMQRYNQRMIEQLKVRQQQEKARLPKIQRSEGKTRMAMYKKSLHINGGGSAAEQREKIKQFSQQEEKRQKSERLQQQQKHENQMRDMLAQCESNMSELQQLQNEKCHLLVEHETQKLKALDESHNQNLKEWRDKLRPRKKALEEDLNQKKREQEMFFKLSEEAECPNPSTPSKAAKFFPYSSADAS
UniProt O95819, sequence (whole entry, looked up): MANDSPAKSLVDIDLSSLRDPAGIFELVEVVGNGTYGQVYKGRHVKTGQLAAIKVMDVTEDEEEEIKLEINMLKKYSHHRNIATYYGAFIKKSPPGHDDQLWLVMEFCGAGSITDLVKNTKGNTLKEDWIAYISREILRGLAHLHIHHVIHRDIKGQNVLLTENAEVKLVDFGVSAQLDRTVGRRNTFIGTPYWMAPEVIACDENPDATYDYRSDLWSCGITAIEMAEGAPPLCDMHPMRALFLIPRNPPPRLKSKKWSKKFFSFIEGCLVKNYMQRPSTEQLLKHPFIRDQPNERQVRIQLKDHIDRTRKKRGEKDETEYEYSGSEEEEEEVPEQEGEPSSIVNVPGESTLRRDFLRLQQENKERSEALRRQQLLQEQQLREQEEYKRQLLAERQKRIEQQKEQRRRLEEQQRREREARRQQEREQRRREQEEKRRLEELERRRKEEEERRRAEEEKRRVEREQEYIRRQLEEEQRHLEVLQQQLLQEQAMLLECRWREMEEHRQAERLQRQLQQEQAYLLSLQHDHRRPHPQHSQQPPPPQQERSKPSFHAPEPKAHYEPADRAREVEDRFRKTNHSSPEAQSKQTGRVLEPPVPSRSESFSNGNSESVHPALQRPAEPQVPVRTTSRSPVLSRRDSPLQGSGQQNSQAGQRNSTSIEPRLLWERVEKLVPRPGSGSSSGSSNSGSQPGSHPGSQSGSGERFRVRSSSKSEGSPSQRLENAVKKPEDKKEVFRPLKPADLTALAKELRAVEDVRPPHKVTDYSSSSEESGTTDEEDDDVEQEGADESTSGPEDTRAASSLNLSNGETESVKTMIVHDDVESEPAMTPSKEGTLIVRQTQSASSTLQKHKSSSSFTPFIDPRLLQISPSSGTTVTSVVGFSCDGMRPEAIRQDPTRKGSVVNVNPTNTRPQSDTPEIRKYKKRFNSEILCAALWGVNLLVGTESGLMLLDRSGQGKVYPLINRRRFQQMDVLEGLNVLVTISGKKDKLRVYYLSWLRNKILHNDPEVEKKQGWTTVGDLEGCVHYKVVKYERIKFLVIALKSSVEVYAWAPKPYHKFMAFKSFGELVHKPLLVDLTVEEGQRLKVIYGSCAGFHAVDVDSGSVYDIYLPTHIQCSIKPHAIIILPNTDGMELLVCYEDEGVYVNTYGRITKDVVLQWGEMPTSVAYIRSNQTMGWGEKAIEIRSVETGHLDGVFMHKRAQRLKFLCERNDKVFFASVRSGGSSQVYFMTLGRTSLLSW
UniProt O96017, sequence (whole entry, looked up): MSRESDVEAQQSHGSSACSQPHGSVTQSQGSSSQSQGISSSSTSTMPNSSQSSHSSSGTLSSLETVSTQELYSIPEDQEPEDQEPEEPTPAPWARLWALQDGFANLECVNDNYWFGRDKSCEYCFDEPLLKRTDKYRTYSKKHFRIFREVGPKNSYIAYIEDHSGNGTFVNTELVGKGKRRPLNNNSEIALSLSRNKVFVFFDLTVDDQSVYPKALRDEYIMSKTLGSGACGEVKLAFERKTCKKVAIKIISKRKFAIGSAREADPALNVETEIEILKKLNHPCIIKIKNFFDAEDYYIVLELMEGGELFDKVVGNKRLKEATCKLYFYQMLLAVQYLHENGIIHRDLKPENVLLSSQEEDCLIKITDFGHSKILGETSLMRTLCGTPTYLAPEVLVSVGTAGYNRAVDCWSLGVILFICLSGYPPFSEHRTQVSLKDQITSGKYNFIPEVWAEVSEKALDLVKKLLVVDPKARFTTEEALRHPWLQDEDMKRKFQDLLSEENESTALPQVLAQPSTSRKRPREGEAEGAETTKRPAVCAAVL

Block 1
SMILES: Cc1ccc(NC(=O)c2ccc(CN3CCN(C)CC3)cc2)cc1Nc1nccc(-c2cccnc2)n1
Effect on: enzyme activity
Action: inhibitor
Tested at: 0.5 µM
Relative to: control
| target | remaining activity [%] |
| --- | --- |
| Cyclin-dependent kinase 5, with p25 (CDK5, Homo sapiens, UniProt Q00535) | 98.1 |
| Serine/threonine-protein kinase Chk2 (CHEK2, Homo sapiens, UniProt O96017) | 99.1 |
| TGF-beta receptor type-1 (TGFBR1, Homo sapiens, UniProt P36897) | 99.7 |
| Death-associated protein kinase 1 (DAPK1, Homo sapiens, UniProt P53355) | 104 |
| Serine/threonine-protein kinase 10 (STK10, Homo sapiens, UniProt O94804) | 103 |
| Protein kinase C alpha type (PRKCA, Homo sapiens, UniProt P17252) | 98.2 |
| Serine/threonine-protein kinase OSR1 (OXSR1, Homo sapiens, UniProt O95747) | 101 |
| TGF-beta receptor type-2 (TGFBR2, Homo sapiens, UniProt P37173) | 97.7 |
| Serine/threonine-protein kinase Nek2 (NEK2, Homo sapiens, UniProt P51955) | 98.7 |

Block 2
Cell line: mouse MPNST tumor cells
Technique: high-content nuclear imaging
Item: cell number
Tested at: 10 µM
Time: 12 h
Setting: mean of 2 replicates
Relative to: plate mean
Reading: higher = more cells
| SMILES | nuclei count [z-score] |
| --- | --- |
| CCN(CC)CCCC(C)Nc1c2ccc(Cl)cc2nc2ccc(OC)cc12 (centres unmarked) | -4.45 |
| COc1ccc(/C=C/c2nc(NCCCN(C)C)c3ccccc3n2)cc1 | -6.35 |
| CNC(=O)c1c(F)cccc1Nc1nc(Nc2cc3c(cc2OC)CCN3C(=O)CN(C)C)nc2[nH]ccc12 | -0.45 |
| OCCN(CCO)c1nc(N2CCCCCCC2)c2nc(N(CCO)CCO)nc(N3CCCCCCC3)c2n1 | -1.87 |
| CCOC(=O)c1cc2ccc(O)cc2oc1=O | 1.97 |
| CNCC[C@@H](Oc1cccc2ccccc12)c1cccs1 | -4.29 |

Block 3
Species: mouse
Medium: microsomes or S9
Tested at: 2 µM
Time: 0.5 h
| SMILES | remaining compound [%] |
| --- | --- |
| COc1ccccc1Nc1nc2nccc(-c3ccc4c(c3)OCO4)c2c(=O)[nH]1 | 26.2 |
| COc1cc(C#N)cc(Br)c1OCCCn1ccnc1 | 53.1 |
| O=[N+]([O-])c1ccc(CNC2=NS(=O)(=O)c3cc(Cl)ccc32)cc1 | 27.7 |
| Cc1noc2c1C(CC(C)C)C1=C(O)CC(C)(C)CC1=N2 (centres unmarked) | 17.8 |
| CC(C)OCCCNC(=O)c1ccc(C(C)(C)C)cc1 | 0.457 |
| Cn1c(=O)c2c(nc(C(=O)N3CC[C@H](NC(=O)OC(C)(C)C)C3)n2Cc2ccccc2)n(C)c1=O | 1.32 |
| Cn1cc(Br)c(C(=O)NCCCN2CCCC2=O)n1 | > 99 |

Block 4
Structure (SMILES): C[C@H](c1ccc(F)cc1)N(Cc1cccc(C(=O)O)c1)C(=O)c1cnc2ccccc2c1
Technique: competition with immobilised ligand
Tested at: 1 µM
| target | assay | remaining binding |
| --- | --- | --- |
| Proto-oncogene tyrosine-protein kinase ROS (ROS1, Homo sapiens, UniProt P08922) | cell-free assay | 100% |
| Proto-oncogene tyrosine-protein kinase receptor Ret (RET, Homo sapiens, UniProt P07949) | cell-free assay | 100% |
| Phosphorylase b kinase gamma catalytic chain, liver/testis isoform (PHKG2, Homo sapiens, UniProt P15735) | cell-free assay | 100% |
| Epidermal growth factor receptor (EGFR, Homo sapiens, UniProt P00533) | cell-free assay | 100% |
| Serine/threonine-protein kinase RIO2 (RIOK2, Homo sapiens, UniProt Q9BVS4) | cell-free assay | 80% |
| Serine/threonine-protein kinase TAO2 (TAOK2, Homo sapiens, UniProt Q9UL54) | cell-free assay | 100% |
| Tyrosine-protein kinase CSK (CSK, Homo sapiens, UniProt P41240) | cell-free assay | 100% |
| Tyrosine-protein kinase ITK/TSK (ITK, Homo sapiens, UniProt Q08881) | cell-free assay | 84% |
| Tyrosine-protein kinase JAK2, JH1 (JAK2, Homo sapiens, UniProt O60674) | cell-free assay | 88% |
| Calcium/calmodulin-dependent protein kinase kinase 1 (CAMKK1, Homo sapiens, UniProt Q8N5S9) | cell-free assay | 100% |
| Phosphatidylinositol 4,5-bisphosphate 3-kinase catalytic subunit alpha isoform (PIK3CA, Homo sapiens, UniProt P42336) | cell-free assay | 100% |
| Tyrosine-protein kinase ABL1, phosphorylated (ABL1, Homo sapiens, UniProt P00519, E255K) | binding | 100% |
| Mitogen-activated protein kinase kinase kinase kinase 4 (MAP4K4, Homo sapiens, UniProt O95819) | cell-free assay | 96% |

A few entries again (block 3):
| SMILES | remaining compound [%] |
| --- | --- |
| COc1ccccc1Nc1nc2nccc(-c3ccc4c(c3)OCO4)c2c(=O)[nH]1 | 26.2 |
| Cc1noc2c1C(CC(C)C)C1=C(O)CC(C)(C)CC1=N2 (centres unmarked) | 17.8 |
| CC(C)OCCCNC(=O)c1ccc(C(C)(C)C)cc1 | 0.457 |
| O=[N+]([O-])c1ccc(CNC2=NS(=O)(=O)c3cc(Cl)ccc32)cc1 | 27.7 |
